# Measurements collected from several papers.
# Numbered parts are unrelated; each lists some results of a single study. Substitutions count along the parent as printed.

# Block 1 — method: protein-binding microarray; molecule type: double-stranded DNA, one strand shown; medium: in vitro; concentration: 0.8 µM; setting: whole 60-bp probe, no competitor; direction: higher = stronger binding; all sequences stand within: … GTCTTGATTCGCTTGACGCTGCTG
# Target: Centromere-binding protein 1, full length, N-terminal tag (CBF1, Saccharomyces cerevisiae, UniProt P17106, residues 1-351)
# UniProt P17106, sequence (whole entry, looked up): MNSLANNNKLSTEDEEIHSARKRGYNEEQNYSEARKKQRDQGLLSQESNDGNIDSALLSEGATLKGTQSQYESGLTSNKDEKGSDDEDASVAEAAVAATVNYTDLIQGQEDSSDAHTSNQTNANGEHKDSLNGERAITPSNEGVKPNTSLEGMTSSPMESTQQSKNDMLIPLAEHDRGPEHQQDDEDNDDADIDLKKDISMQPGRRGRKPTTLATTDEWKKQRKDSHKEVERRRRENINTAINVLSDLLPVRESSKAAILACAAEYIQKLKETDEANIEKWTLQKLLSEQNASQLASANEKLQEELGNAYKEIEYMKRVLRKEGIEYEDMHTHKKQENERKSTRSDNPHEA
Strand,fluorescence intensity [a.u.]
CTAAGGGATGAGCTGAACGTGCAATTGATACCATTC,571
CTAGTCTGTGATGGTGGTGGCACGCGATAGTACTTC,701
CTAGCCGAAAGAAGTCACGGCGATGAACAAAATTTC,689
GAACAAGCCTCGCTTCACGTGTAACATACACAGTAG,2230
GAAACAATCGATCAGTGCGTGCCTTTAATACTTTAG,556
CTAATGCTGAAGTACGTGGTGACGGATATTGGGTTC,542
GAAATGTTAAAGTGTGTGGTGGTAAGACGTTATTAG,534
GAATATATGTATGGACACGTTTCATTTAGGATTTAG,578
CTATGAGTCTTATATGACGTCACTAGAAGCTCATTC,506
CCTAACTACTATATAACCGTGATATAGCTTCGTACA,544
GAAGTACACTCTACAGCCGTGACTGAGAAAAAGTAG,715

# Block 2 — target: CCND1, cyclin fold, Cln2 fusion (human); method: yeast growth competition, sequencing; medium: yeast; setting: weak parent motif; baseline: not given; direction: higher = stronger binding
# Parent: CDKN1B docking peptide (human); PSACRNLFGPVDH; partner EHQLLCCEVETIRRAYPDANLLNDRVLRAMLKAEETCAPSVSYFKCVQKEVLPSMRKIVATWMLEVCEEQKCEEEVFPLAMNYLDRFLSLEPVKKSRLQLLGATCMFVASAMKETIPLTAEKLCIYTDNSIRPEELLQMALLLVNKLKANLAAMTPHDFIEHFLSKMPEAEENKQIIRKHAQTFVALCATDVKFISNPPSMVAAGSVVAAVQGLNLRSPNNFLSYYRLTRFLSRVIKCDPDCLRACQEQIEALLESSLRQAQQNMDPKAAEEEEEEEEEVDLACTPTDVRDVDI
Change,normalised enrichment score
P10N,0.919
P10V,0.31
S2Q,0.183
G9Q,0.602
V11Y,0.666
V11G,0.931
V11I,0.823
G9A,0.766
S2N,0.687
C4D,0.197
V11T,0.867
R5N,0.791
P10I,0.406
N6W,0.239
C4P,0.0362
N6D,0.294

# Block 3 — method: RNA Bind-n-Seq; molecule type: RNA; medium: in vitro; concentration: 100 nM; baseline: input RNA pool; direction: higher = stronger binding
# Target: RING finger protein unkempt homolog, zinc fingers 1-6, SBP tag (UNK, Homo sapiens, UniProt Q9C0B0, residues 30-357)
# UniProt Q9C0B0, sequence (30-357, looked up): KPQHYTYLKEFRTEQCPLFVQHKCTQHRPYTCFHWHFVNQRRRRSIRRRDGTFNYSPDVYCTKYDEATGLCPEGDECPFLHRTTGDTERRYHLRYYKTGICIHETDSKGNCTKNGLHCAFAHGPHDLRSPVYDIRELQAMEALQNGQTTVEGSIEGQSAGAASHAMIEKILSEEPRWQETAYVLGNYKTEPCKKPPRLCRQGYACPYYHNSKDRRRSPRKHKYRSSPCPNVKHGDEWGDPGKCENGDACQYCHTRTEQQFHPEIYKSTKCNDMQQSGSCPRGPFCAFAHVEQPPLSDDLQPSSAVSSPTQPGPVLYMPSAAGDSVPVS
# Setting: RNA with constant flanks, vertebrate orthologous sites, ends assumed
# All sequences stand within: GGGAGUUCUACAGUCCGACGAUC … CAACAGAGGAUUGAGCAUCA
Strand,bound/input enrichment
GCACAUGCCGCUGUCACCAAAAGCAGACUACCAUAUUUCAGAUUUCAUCCAGAGUCGUUCUGGUGUUUCCUAUUCCCUACCCUUCCCACUACUUUCAAUGAUGAAGUAUCCUAAGUUCUC,0.966 ratio
ACCUCCAAUAGGCUAAUUCAGGGAAAGGAAACAGGCUUCAGGGAAUAUAAAUUAAUAUAGUAGUGGUCAUGAAGAAUAACUUUGAUAUAACUGAUUUGGGGGAGUGAUGGCAACUUGUGA,0.906 ratio
UUCAGGCACAACUGACUGGUUCACAGCAUUCCUUACACAGUUAUCUAUCAAAUGCAAGUGUGGUUAAUUUUCAGGAAACAAGCAGGCAGUCAUCUUUAUCCUGUAACCCAAUUGGAGAUU,1.05 ratio
GAUUUGGACCUUGGAGCCGAACCAGGGAACUAGCAAAAGUAAAGCAGACUUGUAAAAGUAUAGCCAAAUGCAGCUGCACCACAACAGUCCCACCACAUUAGCAGCUGUGUUAAAGUAUUU,0.459 ratio
CUGUUCUAGGCAAGAUGAUUCAGAAAAUAGAAGUACCAGCUCUUGGAUAUCCUCUUCAUUCAGAAACAGGUGUACACCUCUGUUUUCUAGGAGAAGAAGAGAAGGAAGGGAUGAAUCUGU,0.364 ratio
CGUCCUUUCGCACUGGCCCUGGCCAAGAUGGUGGACUGAGGUUUCAUUGAGGACCUGCAUUUCAAAGUUUUUUAAAUCAUUGUACAGGAAGCGACGUGGCUGAAACAGCCUCUCACAGUU,0.374 ratio
CCGUAAACAGCUCAGGGCAGUACCCUCCCUAUUCUUCAUAUGGCAACCUUAAUCAGGGAUUAGCCAACACAUCAGGGAUGAGUCCCAACUUGAGCCUUACCACCAGCAGUAACAGCAACC,0.253 ratio
GAAAUGGCCAGUGGAGGAAUCCCUGCCUUGGCCUUGCCUCCCCUCCUUGCCACCUGCCCCUAGGUAUUUUUUUUUUAACCAUCACAUGAUUCCGGUUGGCACUUCCUCCCCCCUGACCUG,4.14 ratio
UUGUGUAGUUUUGUAUUUUCAUGCAAAAAUCUUACUGUACUUGAAUGUCUUUAUUUUAUUAAAUGUGUUUAAAAUUUUGGUUGUUAUAUCCUAGAAUUGCUGUAAUUAUACGUGUCGCAG,0.433 ratio
UAGUGCUUAAGCCAACAGCAGUUCUAAAAUGCUAUUUAUUUGUGUUUGUAAGUUUGUACAUAAUACAAACCUCAUAUUGUUGCUAAGCUUUUUUUUUAAUUGGGGUGUGGGUCAAUUUGA,2.35 ratio

# Block 4 — method: DHFR PCA, dose-response; medium: yeast; setting: Hill fit, mean, not affinity; with: (+)-ABA, dose series; direction: lower = more sensitive
# Target: ABI1, truncated, D143A, DHFR fusion (Arabidopsis thaliana, UniProt P49597)
# Parent: PYL1, truncated, DHFR fusion (Arabidopsis thaliana, UniProt Q8VZS8); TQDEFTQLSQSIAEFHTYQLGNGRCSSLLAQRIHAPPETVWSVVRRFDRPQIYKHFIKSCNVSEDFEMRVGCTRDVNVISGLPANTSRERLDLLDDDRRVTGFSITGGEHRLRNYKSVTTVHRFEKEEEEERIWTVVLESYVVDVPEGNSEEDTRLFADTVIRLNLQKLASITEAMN
Change,ABA EC50
T6Q,4.84 µM
C25L,29.5 µM
N61E,3.35 µM
E130D,1.4 µM
N177R,2.15 µM
V145A,42.4 µM
S26L,167 µM
L91Q,615 µM
D65K,2.79 µM
R163L,57.8 µM
S59C,5.27 µM
W134D,3.3 µM
L94C,29.9 µM
T119K,432 µM
L29R,25.4 µM
R46K,6.88 µM
K168V,7.69 µM
F56W,4.43 µM
L20P,1.3 µM
D144M,74.3 µM
R99C,2.87 µM
V76A,130 µM
H122R,493 µM
